Published values from different studies.
Every numbered part comes from another study and shows a few of its results, in no order.

Study 1
Substance: PhoQ, residues 284 288 289 292 302 303 AANNSF
Technique: Sort-seq
Item: YFP reporter
Matrix: E. coli
Setting: PhoQ-PhoP variant library
With: 10 µM Mg2+
Baseline: high Mg2+ state
Reading: higher = stronger signaling
It gave 24.4 for fold induction (PhoP, residues 12 14 15 18 19 LHTVL (Escherichia coli, UniProt P23836)).
For PhoP, residues 12 14 15 18 19 TQAML (Escherichia coli, UniProt P23836): fold induction read 26.4.
It gave 13.9 for fold induction (PhoP, residues 12 14 15 18 19 NQCAL (Escherichia coli, UniProt P23836)).

Study 2
Target: Sal-like protein 4, full length isoform B (SALL4, Homo sapiens, UniProt Q9UJQ4-2, residues 1-616)
Technique: universal PBM
Form: double-stranded DNA, one strand shown
Matrix: in vitro
Tested at: not given
Setting: 8-mer, flanks averaged, mean of replicates
Reading: higher = stronger binding
With `AGATCCGC` the E-score was -0.144.
For `CAACATCG`, the E-score was 0.0786.
The E-score of `CGGTTACG` is reported as -0.213.
With `GAGACAGA` the E-score was 0.0362.
For `AGCGTAAA`, the E-score was 0.0787.
The E-score of `AGGCGGAG` is reported as -0.145.

Study 3
Target: Interferon regulatory factor 5, full length, phosphomimetic (IRF5, Homo sapiens, UniProt Q13568-2, residues 1-514, K96S/S451D/S453D/S456D/S462D)
Technique: protein-binding microarray
Form: double-stranded DNA, one strand shown
Matrix: in vitro
Tested at: 250 nM
Setting: 60-bp whole probe
With: salmon DNA 0.4 mg/ml
Baseline: random background probes
Reading: higher = stronger binding
Constant ends, left off below: GCCTAGCAC … GTCTTGATTCGCTTGACGCTGCTG
With `GACGGTTTAGGTTTCGGGACGTGCTAG` the log fluorescence was 4.08 z-score.
The log fluorescence of `GACGGTCTCCTTTGCCTGACGTGCTAG` is reported as -0.216 z-score.
`TCCCTTTCAGTTTTCCTCTGGTGCTAG` has a log fluorescence of 4.22 z-score.
`TTAGGTTTCGGGTATCGGTTGGTGCTA` gave a log fluorescence of 9.29 z-score.
For `TTAGGTTTCGGACTGGGTTTGTGCTAG`, the log fluorescence was 5.31 z-score.

Study 4
Target: Histone acetyltransferase KAT6A, both winged helices, GST fusion (KAT6A, Homo sapiens, UniProt Q92794, residues 1-181)
Technique: protein binding microarray
Form: double-stranded DNA, one strand shown
Matrix: in vitro
Tested at: not given
Setting: 8-mer, flanks averaged, mean of 2 arrays, mostly near background
Baseline: not given
Reading: higher = stronger binding
Target sequence (chain): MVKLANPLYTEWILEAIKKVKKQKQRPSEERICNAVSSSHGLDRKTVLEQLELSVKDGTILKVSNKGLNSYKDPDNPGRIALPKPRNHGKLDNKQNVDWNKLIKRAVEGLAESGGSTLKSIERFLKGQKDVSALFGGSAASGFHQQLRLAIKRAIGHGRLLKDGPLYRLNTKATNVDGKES
`TCCTCACA` gave an E-score of -0.0725.
`ACTTCTAT` has an E-score of -0.291.
For `AAGCCCAG`, the E-score was -0.188.
`CATGTTGC` has an E-score of 0.0958.
`AACCCCAG` has an E-score of -0.193.
With `TTCCAAAA` the E-score was -0.265.
`AGTTCAAA` has an E-score of -0.0958.
